Assay results of several laboratories.
Protocols differ between the studies behind these lines.
DRD3: D(3) dopamine receptor (DRD3, Homo sapiens, UniProt P35462)
Chain of UniProt P35462 (whole entry, looked up): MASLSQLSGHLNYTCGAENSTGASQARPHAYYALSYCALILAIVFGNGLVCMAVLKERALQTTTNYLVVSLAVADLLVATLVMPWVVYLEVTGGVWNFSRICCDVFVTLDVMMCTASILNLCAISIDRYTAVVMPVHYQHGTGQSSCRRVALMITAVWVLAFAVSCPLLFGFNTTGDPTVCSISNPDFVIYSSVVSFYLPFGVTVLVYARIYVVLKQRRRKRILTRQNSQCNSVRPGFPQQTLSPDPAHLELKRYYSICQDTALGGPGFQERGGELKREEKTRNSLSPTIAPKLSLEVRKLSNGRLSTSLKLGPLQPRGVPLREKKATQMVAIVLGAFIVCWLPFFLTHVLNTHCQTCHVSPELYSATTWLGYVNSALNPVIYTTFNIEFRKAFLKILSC
ADRA2B: Alpha-2B adrenergic receptor (ADRA2B, Homo sapiens, UniProt P18089)
Chain of UniProt P18089 (whole entry, looked up): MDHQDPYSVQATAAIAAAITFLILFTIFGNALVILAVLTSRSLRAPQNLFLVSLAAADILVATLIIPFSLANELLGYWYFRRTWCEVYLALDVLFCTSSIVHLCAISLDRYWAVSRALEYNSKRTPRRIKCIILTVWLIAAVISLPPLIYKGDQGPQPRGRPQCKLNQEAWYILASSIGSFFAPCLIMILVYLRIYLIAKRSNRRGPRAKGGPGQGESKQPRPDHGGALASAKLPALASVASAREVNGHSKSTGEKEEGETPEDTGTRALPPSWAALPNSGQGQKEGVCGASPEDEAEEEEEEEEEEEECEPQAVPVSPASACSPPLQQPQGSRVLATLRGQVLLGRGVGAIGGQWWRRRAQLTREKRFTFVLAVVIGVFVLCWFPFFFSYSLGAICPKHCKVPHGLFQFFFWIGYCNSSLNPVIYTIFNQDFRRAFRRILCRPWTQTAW
HDAC8: Histone deacetylase 8 (HDAC8, Homo sapiens, UniProt Q9BY41)
Chain of UniProt Q9BY41 (whole entry, looked up): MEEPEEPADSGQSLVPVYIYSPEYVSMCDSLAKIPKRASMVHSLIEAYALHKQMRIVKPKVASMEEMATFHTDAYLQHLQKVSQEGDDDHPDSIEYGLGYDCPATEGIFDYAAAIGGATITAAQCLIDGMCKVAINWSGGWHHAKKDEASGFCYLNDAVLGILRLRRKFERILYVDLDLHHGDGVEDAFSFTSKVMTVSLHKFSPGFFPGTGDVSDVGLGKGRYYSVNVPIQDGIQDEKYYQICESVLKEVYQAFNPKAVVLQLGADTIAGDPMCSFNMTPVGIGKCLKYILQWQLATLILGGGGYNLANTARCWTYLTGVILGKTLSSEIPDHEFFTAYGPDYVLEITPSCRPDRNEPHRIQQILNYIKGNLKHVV
SCTR: Secretin receptor (SCTR, Homo sapiens, UniProt P47872)
Chain of UniProt P47872 (whole entry, looked up): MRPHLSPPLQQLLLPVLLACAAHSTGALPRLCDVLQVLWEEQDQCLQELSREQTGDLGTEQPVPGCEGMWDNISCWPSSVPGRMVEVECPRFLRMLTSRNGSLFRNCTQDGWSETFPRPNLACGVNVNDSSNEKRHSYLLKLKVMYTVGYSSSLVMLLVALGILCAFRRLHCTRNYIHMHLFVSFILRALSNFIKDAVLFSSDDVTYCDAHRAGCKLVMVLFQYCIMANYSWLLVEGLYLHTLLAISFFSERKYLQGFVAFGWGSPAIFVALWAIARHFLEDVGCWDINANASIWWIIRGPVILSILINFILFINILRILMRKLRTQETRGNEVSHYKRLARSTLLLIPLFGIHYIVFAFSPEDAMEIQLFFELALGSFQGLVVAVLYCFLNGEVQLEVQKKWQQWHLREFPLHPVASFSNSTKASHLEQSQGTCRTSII
ADRA2C: Alpha-2C adrenergic receptor (ADRA2C, Homo sapiens, UniProt P18825)
Chain of UniProt P18825 (whole entry, looked up): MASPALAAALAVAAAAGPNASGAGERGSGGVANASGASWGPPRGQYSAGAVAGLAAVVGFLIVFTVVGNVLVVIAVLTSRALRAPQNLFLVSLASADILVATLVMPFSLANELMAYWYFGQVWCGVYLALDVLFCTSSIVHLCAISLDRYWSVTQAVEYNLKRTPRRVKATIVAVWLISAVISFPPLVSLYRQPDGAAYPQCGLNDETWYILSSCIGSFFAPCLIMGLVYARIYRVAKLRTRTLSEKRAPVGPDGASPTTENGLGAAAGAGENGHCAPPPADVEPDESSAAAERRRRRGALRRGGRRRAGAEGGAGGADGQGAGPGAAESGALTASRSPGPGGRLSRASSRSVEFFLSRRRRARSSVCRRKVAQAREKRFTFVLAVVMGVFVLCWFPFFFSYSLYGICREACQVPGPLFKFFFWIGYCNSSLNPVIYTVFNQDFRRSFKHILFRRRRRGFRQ
HDAC6: Protein deacetylase HDAC6 (HDAC6, Homo sapiens, UniProt Q9UBN7)
Chain of UniProt Q9UBN7 (whole entry, looked up): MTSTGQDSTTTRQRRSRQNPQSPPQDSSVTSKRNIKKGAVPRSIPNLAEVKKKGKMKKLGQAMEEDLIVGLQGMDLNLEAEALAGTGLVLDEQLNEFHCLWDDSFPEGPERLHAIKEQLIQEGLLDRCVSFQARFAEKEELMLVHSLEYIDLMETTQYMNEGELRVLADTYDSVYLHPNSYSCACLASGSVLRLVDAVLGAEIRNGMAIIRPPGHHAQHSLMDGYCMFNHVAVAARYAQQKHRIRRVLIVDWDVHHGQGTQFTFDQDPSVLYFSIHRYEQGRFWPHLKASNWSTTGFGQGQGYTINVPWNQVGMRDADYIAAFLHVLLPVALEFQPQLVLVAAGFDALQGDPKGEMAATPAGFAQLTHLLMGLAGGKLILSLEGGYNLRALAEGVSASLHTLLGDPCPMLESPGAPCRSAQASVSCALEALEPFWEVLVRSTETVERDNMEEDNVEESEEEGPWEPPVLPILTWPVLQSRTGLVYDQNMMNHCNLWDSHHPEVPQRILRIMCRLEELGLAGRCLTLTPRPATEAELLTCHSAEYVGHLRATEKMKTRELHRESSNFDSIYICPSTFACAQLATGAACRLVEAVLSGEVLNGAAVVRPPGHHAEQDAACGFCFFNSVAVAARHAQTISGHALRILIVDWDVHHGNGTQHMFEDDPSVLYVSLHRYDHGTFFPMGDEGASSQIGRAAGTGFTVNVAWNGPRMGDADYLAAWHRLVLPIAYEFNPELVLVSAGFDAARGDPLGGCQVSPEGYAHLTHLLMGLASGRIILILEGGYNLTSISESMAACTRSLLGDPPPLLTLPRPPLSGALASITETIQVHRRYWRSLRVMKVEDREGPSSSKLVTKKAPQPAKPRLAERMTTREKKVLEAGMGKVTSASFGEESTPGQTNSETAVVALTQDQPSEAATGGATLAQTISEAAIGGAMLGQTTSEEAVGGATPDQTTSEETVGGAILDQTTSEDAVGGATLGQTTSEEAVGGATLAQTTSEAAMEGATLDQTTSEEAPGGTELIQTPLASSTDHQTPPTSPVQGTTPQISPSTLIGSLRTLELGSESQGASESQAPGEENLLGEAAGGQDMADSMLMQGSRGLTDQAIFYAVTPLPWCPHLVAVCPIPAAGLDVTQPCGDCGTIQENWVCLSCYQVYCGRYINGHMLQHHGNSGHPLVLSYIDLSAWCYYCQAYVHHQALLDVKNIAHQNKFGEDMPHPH
CES2: Cocaine esterase (CES2, Homo sapiens, UniProt O00748)
Chain of UniProt P35348 (whole entry, unmodified, looked up): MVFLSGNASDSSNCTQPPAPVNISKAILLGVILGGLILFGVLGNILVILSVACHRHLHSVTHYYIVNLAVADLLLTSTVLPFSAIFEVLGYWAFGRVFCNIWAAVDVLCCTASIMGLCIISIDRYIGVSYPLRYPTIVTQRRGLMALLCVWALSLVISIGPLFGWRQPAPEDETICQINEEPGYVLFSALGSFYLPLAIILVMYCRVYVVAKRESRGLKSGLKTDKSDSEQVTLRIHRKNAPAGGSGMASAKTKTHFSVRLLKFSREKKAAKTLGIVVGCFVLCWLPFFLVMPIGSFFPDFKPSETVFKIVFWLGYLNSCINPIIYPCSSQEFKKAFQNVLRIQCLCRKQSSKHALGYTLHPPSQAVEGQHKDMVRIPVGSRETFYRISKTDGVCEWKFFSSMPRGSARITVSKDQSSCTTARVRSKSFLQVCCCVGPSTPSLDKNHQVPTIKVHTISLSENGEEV
Chain of UniProt O00748 (whole entry, looked up): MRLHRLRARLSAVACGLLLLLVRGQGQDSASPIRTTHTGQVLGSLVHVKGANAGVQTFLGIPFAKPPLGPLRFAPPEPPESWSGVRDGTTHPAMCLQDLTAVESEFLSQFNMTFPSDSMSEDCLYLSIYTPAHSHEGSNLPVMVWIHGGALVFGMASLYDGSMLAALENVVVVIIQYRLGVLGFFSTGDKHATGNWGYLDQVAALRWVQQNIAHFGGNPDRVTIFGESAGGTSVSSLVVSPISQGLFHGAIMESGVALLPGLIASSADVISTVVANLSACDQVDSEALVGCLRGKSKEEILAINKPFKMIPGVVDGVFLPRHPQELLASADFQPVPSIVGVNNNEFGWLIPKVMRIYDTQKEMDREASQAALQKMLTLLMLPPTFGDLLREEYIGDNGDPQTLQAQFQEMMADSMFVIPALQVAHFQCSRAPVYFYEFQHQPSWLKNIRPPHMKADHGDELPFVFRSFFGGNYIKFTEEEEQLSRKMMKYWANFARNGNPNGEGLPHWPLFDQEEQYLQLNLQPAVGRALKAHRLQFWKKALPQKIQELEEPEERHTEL
Chain of UniProt P13631 (whole entry, looked up): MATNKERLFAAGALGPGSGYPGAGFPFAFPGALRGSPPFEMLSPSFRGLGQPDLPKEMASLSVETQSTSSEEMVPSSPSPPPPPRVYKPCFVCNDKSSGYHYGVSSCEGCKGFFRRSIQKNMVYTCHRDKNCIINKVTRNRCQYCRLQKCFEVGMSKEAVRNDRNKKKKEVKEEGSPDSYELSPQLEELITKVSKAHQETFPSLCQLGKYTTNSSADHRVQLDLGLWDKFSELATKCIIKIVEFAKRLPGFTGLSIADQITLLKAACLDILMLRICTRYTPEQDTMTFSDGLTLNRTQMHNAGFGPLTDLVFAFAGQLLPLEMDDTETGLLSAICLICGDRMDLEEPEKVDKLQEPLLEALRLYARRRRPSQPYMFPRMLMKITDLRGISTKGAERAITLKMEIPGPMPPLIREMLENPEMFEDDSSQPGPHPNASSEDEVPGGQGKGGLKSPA

Structure (SMILES)	target	test	setting	measurement	value
Cc1ccc(C2=CCC(C)(C)c3cc(C(/C=C/c4ccc(C(=O)O)cc4)=N/O)ccc32)cc1	RARG (Homo sapiens, UniProt P13631)	reporter gene, antagonist, luciferase	–	EC50	0.0011 µM
Cc1[nH]c(C)c(S(=O)(=O)Nc2ccc(C3CC3)c(Cl)c2)c1C(=O)N1CCC(F)(F)C1	DRD3	G protein activation, antagonist, BRET	–	IC50	6 µM
COc1ccccc1N1CCN(Cc2cccnc2Oc2ccc(-c3c(C)c(=O)[nH]c(=O)n3C)c(C)c2)CC1	ADRA2B	ligand displacement, radioligand	–	Ki	0.116 µM
O=C(NO)c1cccc(OS(=O)(=O)Oc2ccc(-c3cccc(C(F)(F)F)c3)cc2)c1	HDAC8	enzyme activity, inhibitor, fluorescence	–	Ki	1.04 µM
Cc1[nH]c(C)c(S(=O)(=O)Nc2ccc(C(F)(F)F)c(Cl)c2)c1C(=O)N1CCCC1	DRD3	G protein activation, antagonist, BRET	–	IC50	2.2 µM
Cc1ccc2[nH]c(=O)c(CNC3CCCCC3)cc2c1	ADRA1A (Homo sapiens, UniProt P35348, M292L)	ligand displacement in cells, flow cytometry	–	Ki	2.29 µM
CC1=NN(/C(=N/c2nnc(C)s2)Nc2ccc(C)c(C)c2)C(c2ccc(-c3ccccc3C(F)(F)F)cc2)S1 (centres unmarked)	SCTR	cAMP, agonist, TR-FRET	–	EC50	0.4 µM
Cc1cc(C)c(OS(=O)(=O)Oc2cccc(C(=O)NO)c2)c(C)c1	HDAC8	enzyme activity, inhibitor, fluorescence	–	Ki	0.16 µM
Cc1[nH]c(C)c(S(=O)(=O)Nc2ccc(Cl)c(Cl)c2Cl)c1C(=O)N1CCC(F)(F)C1	DRD3	G protein activation, antagonist, BRET	–	IC50	1.4 µM
N#C[C@@]12C[C@@H]1[C@@H](n1cnc3c(N[C@@H](C4CCC4)C4CC4)nc(I)nc31)[C@H](O)[C@@H]2O	HTR2A (Homo sapiens, UniProt P28223)	calcium signal, antagonist	–	Kb	> 10 µM
Cc1[nH]c(C)c(S(=O)(=O)Nc2ccc(Cl)c(C(F)(F)F)c2)c1C(=O)N1CCCC1	DRD3	β-arrestin recruitment, antagonist	–	IC50	3.4 µM
Cc1cc(Oc2ncccc2CN2CCN(c3ccc(F)c(F)c3)CC2)ccc1-c1c(C)c(=O)[nH]c(=O)n1C	ADRA2B	ligand displacement, radioligand	–	Ki	0.283 µM
CCc1ccc(/N=C(/Nc2nnc(C)s2)N2N=C(C)SC2c2ccc(C)cc2)cc1 (centres unmarked)	SCTR	cAMP, agonist, TR-FRET	–	EC50	26.4 µM
Cc1ccc(N2CCN(Cc3cccnc3Oc3ccc(-c4c(C)c(=O)[nH]c(=O)n4C)c(C)c3)CC2)cc1C	ADRA2C	ligand displacement, radioligand	–	Ki	0.108 µM
CN(C)c1ncnc2c1ncn2[C@@H]1O[C@H](CO)[C@@H](O)[C@H]1O	ADORA3 (Homo sapiens, UniProt P0DMS8, V169F)	G protein activation, agonist	–	EC50	35 µM
CCC1=NN(/C(=N/c2nnc(CC)s2)Nc2ccc(C)c(C)c2)C(c2cc(F)c(F)c(F)c2)S1 (centres unmarked)	SCTR	cAMP, agonist, TR-FRET	–	EC50	0.1 µM
Cc1[nH]c(C)c(S(=O)(=O)Nc2cc(Cl)c(Cl)cc2Cl)c1C(=O)N1CCC(F)(F)C1	DRD3	G protein activation, antagonist, BRET	–	IC50	16 µM
Cc1cc(C(C)(C)C)ccc1OS(=O)(=O)Oc1cc(F)cc(C(=O)NO)c1	HDAC6	enzyme activity, inhibitor, fluorescence	–	Ki	1.43 µM
Cc1cc(Oc2ncccc2CN2CCN(Cc3ccccc3Cl)CC2)ccc1-c1c(C)c(=O)[nH]c(=O)n1C	ADRA2B	ligand displacement, radioligand	–	Ki	0.0727 µM

Structure (SMILES)	target	test	setting	measurement	value
CC1=NN(/C(=N/c2nnc(C)s2)Nc2ccc(C)c(C)c2)C(c2cc(F)c(F)c(F)c2)S1 (centres unmarked)	SCTR	cAMP, agonist, TR-FRET	–	EC50	0.05 µM
CC1=C(O)C(=O)OC1C (centres unmarked)	OR8D1 (Homo sapiens, UniProt Q8WZ84, R293K)	cAMP, agonist, luciferase	–	EC50	12 µM
Cc1[nH]c(C)c(S(=O)(=O)Nc2ccc(C(F)(F)F)c(Cl)c2)c1C(=O)N1CC[C@H](F)C1	DRD3	β-arrestin recruitment, antagonist	–	IC50	4.6 µM
O=C(NO)c1cncc(OS(=O)(=O)Oc2ccc3ccccc3c2)c1	HDAC8	enzyme activity, inhibitor, fluorescence	–	Ki	0.276 µM
CCOc1ccc(C(=O)CC(SCc2ccccc2Br)C(=O)O)cc1 (centres unmarked)	AKT1 (Homo sapiens, UniProt P31749)	ligand displacement, FP	–	Ki	103 µM
CC(C)c1cccc(OS(=O)(=O)Oc2cc(F)cc(C(=O)NO)c2)c1	HDAC8	enzyme activity, inhibitor, fluorescence	–	Ki	2.32 µM
Cc1cc(Oc2ncccc2CN2CCN(c3ccccc3)CC2)ccc1-c1c(C)c(=O)[nH]c(=O)n1C	ADRA2B	ligand displacement, radioligand	–	Ki	0.0967 µM
Cc1cc(C(C)(C)C)ccc1OS(=O)(=O)Oc1cccc(C(=O)NO)c1	HDAC6	enzyme activity, inhibitor, fluorescence	–	Ki	1.59 µM
O=C(c1cc(Cc2n[nH]c(=O)c3ccccc23)ccc1F)N1CCN(C(=O)C2CC2)CC1	CES2	enzyme activity, inhibitor, fluorescence	with preincubation	IC50	> 100 µM
Cc1cc(Oc2ncccc2CN2CCN(c3ccccc3C)CC2)ccc1-c1c(C)c(=O)[nH]c(=O)n1C	ADRA1A (Homo sapiens, UniProt P35348)	ligand displacement, radioligand	–	Ki	1.18 µM
CC1=NN(/C(=N\c2ccc(C)cc2)Nc2nnc(C)s2)C(c2ccc(C)cc2)S1 (centres unmarked)	SCTR	cAMP, agonist, TR-FRET	–	EC50	3.1 µM
Cc1cnc(-c2ccc(-c3ccc(NC(=O)Nc4c(F)cc(F)cc4F)cc3F)c3c2C(=O)NC3)[nH]1	MET (Homo sapiens, UniProt P08581)	binding, competition with immobilised ligand	–	Kd	0.0081 µM
Cc1cc(Oc2ncccc2CN2CCN(c3ccccc3Cl)CC2)ccc1-c1c(C)c(=O)[nH]c(=O)n1C	ADRA2B	ligand displacement, radioligand	–	Ki	0.0851 µM
Cc1cc(OS(=O)(=O)Oc2ccc(C(F)(F)F)cc2)cc(C(=O)NO)c1	HDAC8	enzyme activity, inhibitor, fluorescence	–	Ki	2.96 µM
COc1ccc(Cl)cc1N1CCN(Cc2cccnc2Oc2ccc(-c3c(C)c(=O)[nH]c(=O)n3C)c(C)c2)CC1	ADRA2C	ligand displacement, radioligand	–	Ki	0.0553 µM
CC(=O)[C@H]1CC[C@H]2[C@@H]3CCC4=CC(=O)CC[C@]4(C)[C@H]3CC[C@]12C	CES2	enzyme activity, inhibitor, fluorescence	with preincubation	IC50	> 100 µM
Cc1ccc(NS(=O)(=O)c2c(C)[nH]c(C)c2C(=O)N2CCC(F)(F)C2)cc1Cl	DRD3	G protein activation, antagonist, BRET	–	IC50	7.3 µM
O=C(/C=C/c1cccc(OS(=O)(=O)Oc2ccccc2)c1)NO	HDAC1 (Homo sapiens, UniProt Q13547)	enzyme activity, inhibitor, fluorescence	–	Ki	0.153 µM
CCOc1ccc(C(=O)CC(SCc2ccc(OC)cc2)C(=O)O)cc1 (centres unmarked)	PLCD1 (Homo sapiens, UniProt P51178)	ligand displacement, FP	–	Ki	> 1000 µM

A few entries again:
Structure (SMILES)	target	test	setting	measurement	value
COc1ccc(Cl)cc1N1CCN(Cc2cccnc2Oc2ccc(-c3c(C)c(=O)[nH]c(=O)n3C)c(C)c2)CC1	ADRA2C	ligand displacement, radioligand	–	Ki	0.0553 µM
CC(=O)[C@H]1CC[C@H]2[C@@H]3CCC4=CC(=O)CC[C@]4(C)[C@H]3CC[C@]12C	CES2	enzyme activity, inhibitor, fluorescence	with preincubation	IC50	> 100 µM
Cc1ccc(NS(=O)(=O)c2c(C)[nH]c(C)c2C(=O)N2CCC(F)(F)C2)cc1Cl	DRD3	G protein activation, antagonist, BRET	–	IC50	7.3 µM
